Published values from different studies.
± gives the spread as reported.
Cell line: DU-145

| Compound | read-out | method | time | IC50 [µM] |
| --- | --- | --- | --- | --- |
| CC1(CCCOC2C(O)C(O)OC(CO)C2O)C(=O)[O][Pt][O]C1=O.NC1CCCCC1N (mixture of isomers) | cell growth or viability | MTT |  | 3.4 |
| O=C(N=P12CN3CN(CN(C3)C1)C2)c1ccccn1.[Cl][Au+][Cl].[O-][Cl+3]([O-])([O-])[O-] | cell growth or viability | MTT | 24 h | 17.4 |
| C#CCCCC[C@H](C)C[C@@H](C)C(=O)N(C)[C@@H](C)C(=O)N1CCC[C@H]1C(=O)N(C)[C@H](C(=O)N(C)[C@H](C(=O)OC)C(C)C)C(C)C | cell growth or viability | SRB |  | 1 |
| O=C(N=P12CN3CN(CN(C3)C1)C2)c1cccc[c]1[Pd]([Br])([PH]12CN3CN(CN(C3)C1)C2)[PH]12CN3CN(CN(C3)C1)C2 | cell growth or viability | MTT | 24 h | 448 |
| O=C(Nc1ccc(Br)cc1)c1cc(Br)cc(Br)c1O | cell growth or viability | resazurin | 72 h | 6.45 |
| COC(=O)[C@H](C(C)C)N(C)C(=O)[C@H](C(C)C)N(C)C(=O)[C@@H]1CCCN1C(=O)[C@H](C)N(C)C(=O)OC(C)(C)C | cell growth or viability | SRB |  | 3 |
| CC1(CCCOC2C(O)OC(CO)C(O)C2O)C(=O)[O][Pt][O]C1=O.NC1CCCCC1N (mixture of isomers) | cytotoxicity | MTT | 7.5 h plus 64 h recovery | 9 ± 0.5 |
| CC[C@H](C)[C@H](NC(=O)[C@@H](N)Cc1ccc(O)cc1)C(=O)N[C@@H](Cc1ccccc1)C(=O)N[C@@H](CC(N)=O)C(=O)N[C@@H](CC(C)C)C(=O)O | cell proliferation | tetrazolium |  | 0.00044 |
| C1=CCCC=CCC1.C1=CCCC=CCC1.O=C(N=P12CN3CN(CN(C3)C1)C2)c1cccc[c]1[Pt+].O=C(N=P12CN3CN(CN(C3)C1)C2)c1cccc[c]1[Pt+].[Cl][Hg-]([Cl])[Cl].[Cl][Hg-]([Cl])[Cl].[Cl][Hg][Cl].[Cl][Hg][Cl] | cell growth or viability | MTT | 24 h | 22.5 |
| COC(=O)[C@@H](NC(=O)[C@@H](NC(=O)[C@@H](NC(=O)[C@@H]1CCCN1C(=O)[C@H](C)NC(=O)OC(C)(C)C)C(C)C)C(C)C)C(C)C | cell growth or viability | SRB |  | 21 |
| CC1(CCCO[C@H]2O[C@H](CO)[C@@H](O)[C@H](O)[C@H]2O)C(=O)[O][Pt][O]C1=O.N[C@@H]1CCCC[C@H]1N | cytotoxicity | MTT | 7.5 h plus 64 h recovery | 11 ± 1 |
| O=C(C[P+]([Au-][Cl])(c1ccccc1)c1ccccc1)[O][Ti+2][O]C(=O)C[P+]([Au-][Cl])(c1ccccc1)c1ccccc1.c1cc[cH-]c1.c1cc[cH-]c1 | cell viability | XTT | 72 h | 35.5 |
| CN(C)CC1C(=O)OC2C1CCC1(C)CC1CCC1(C)OC21 (centres unmarked) | cell growth or viability | resazurin |  | 13.3 |
| CC1(CCCOC2C(CO)OC(O)C(O)C2O)C(=O)[O][Pt][O]C1=O.NC1CCCCC1N (mixture of isomers) | cytotoxicity | MTT | 7.5 h plus 64 h recovery | 18 ± 2 |

Excerpt of the above:
| Compound | read-out | method | time | IC50 [µM] |
| --- | --- | --- | --- | --- |
| CC[C@H](C)[C@H](NC(=O)[C@@H](N)Cc1ccc(O)cc1)C(=O)N[C@@H](Cc1ccccc1)C(=O)N[C@@H](CC(N)=O)C(=O)N[C@@H](CC(C)C)C(=O)O | cell proliferation | tetrazolium |  | 0.00044 |
| COC(=O)[C@@H](NC(=O)[C@@H](NC(=O)[C@@H](NC(=O)[C@@H]1CCCN1C(=O)[C@H](C)NC(=O)OC(C)(C)C)C(C)C)C(C)C)C(C)C | cell growth or viability | SRB |  | 21 |
